Assay results of several laboratories.
± marks the error that the study gave. In brackets after ≈: the same amount, converted by molar mass.

SMILES	test	system	setting	scale	quantity	result
CCCCCCCCCCCCCCCC(=O)N[C@@H](CCC(=O)NCCOCCOCCC(=O)NCCOCCOCCC(=O)NCCCC[C@H](NC(=O)[C@H](CC(=O)O)NC(=O)[C@H](CC(C)C)NC(=O)[C@H](Cc1ccc(O)cc1)NC(=O)[C@H](CCCCN)NC(=O)[C@H](CO)NC(=O)[C@H](Cc1ccc(O)cc1)NC(=O)[C@H](CC(=O)O)NC(=O)[C@H](CO)NC(=O)[C@@H](NC(=O)[C@H](Cc1ccccc1)NC(=O)[C@@H](NC(=O)CNC(=O)[C@H](CCC(N)=O)NC(=O)[C@@H](CO)NC(=O)[C@@H](N)Cc1c[nH]cn1)[C@@H](C)O)[C@@H](C)O)C(=O)N[C@@H](CCCNC(=N)N)C(=O)N[C@@H](CCCNC(=N)N)C(=O)N[C@@H](C)C(=O)N[C@@H](CCC(N)=O)C(=O)N[C@@H](CC(=O)O)C(=O)N[C@@H](Cc1ccccc1)C(=O)N[C@H](C(=O)N[C@@H](CCC(N)=O)C(=O)N[C@@H](Cc1c[nH]c2ccccc12)C(=O)N[C@@H](CC(C)C)C(=O)N[C@@H](CC(C)C)C(=O)N[C@@H](CC(N)=O)C(=O)N[C@H](C(=O)NCC(=O)NCC(=O)N1CCC[C@H]1C(=O)N[C@@H](CO)C(=O)N[C@@H](CO)C(=O)NCC(=O)N[C@@H](C)C(=O)N1CCC[C@H]1C(=O)N1CCC[C@H]1C(=O)N1CCC[C@H]1C(=O)N[C@@H](CO)C(N)=O)[C@@H](C)O)C(C)C)C(=O)O	flow cytometry	Schistosoma japonicum-infected mice, liver	dose not given	–	liver macrophages and Tregs	decreased
CC[C@H](C)[C@H](NC(=O)[C@H](C)NC(=O)CNC(=O)[C@@H](N)CCSC)C(=O)N[C@@H](C)C(=O)N[C@@H](CCCCN)C(=O)N[C@@H](CC(C)C)C(=O)N[C@H](C(=O)N[C@@H](C)C(=O)N[C@@H](CCCCN)C(=O)N[C@@H](Cc1ccccc1)C(=O)NCC(=O)N[C@@H](Cc1c[nH]c2ccccc12)C(=O)N1CCC[C@H]1C(=O)N[C@@H](CCCNC(=N)N)C(=O)N[C@H](C(=O)N[C@@H](CCCCN)C(=O)N[C@@H](CCCCN)C(=O)N[C@@H](Cc1ccccc1)C(=O)N[C@@H](Cc1ccc(O)cc1)C(=O)N[C@@H](CCCCN)C(=O)N[C@@H](CCC(N)=O)C(=O)N[C@H](C(=O)N[C@@H](CCSC)C(=O)N[C@@H](CCC(N)=O)C(=O)N[C@@H](Cc1ccccc1)C(=O)N[C@H](C(=O)NCC(=O)N[C@@H](CCC(N)=O)C(=O)NCC(=O)N[C@@H](Cc1c[nH]c2ccccc12)C(=O)N[C@H](C(=O)N[C@H](C(=O)N[C@@H](CC(=O)O)C(=O)N[C@@H](CCC(N)=O)C(=O)N[C@H](C(=O)N[C@@H](CCC(=O)O)C(=O)N[C@@H](CCCCN)C(=O)N[C@@H](Cc1c[nH]c2ccccc12)C(=O)N[C@@H](CC(C)C)C(=O)N[C@@H](CCCCN)C(=O)N[C@@H](CCCNC(=N)N)C(=O)N[C@@H](Cc1c[nH]cn1)C(=O)O)[C@@H](C)CC)[C@@H](C)CC)[C@@H](C)O)[C@@H](C)CC)[C@@H](C)CC)[C@@H](C)CC)C(C)C	–	PG/PE 1:1 liposomes	MIC	relative to: Triton X-100	calcein release	33.4%
O=C(O)CCn1c(=O)oc2cc(Cl)c(Cl)cc21	–	rat, plasma	dose not given	–	free tryptophan level	42 µM
CC[C@H](C)[C@H](NC(=O)[C@@H](NC(=O)[C@H](CC(=O)O)NC(C)=O)[C@@H](C)O)C(=O)N[C@@H](CCCNC(=N)N)C(=O)N[C@@H](CC(C)C)C(=O)N[C@@H](CC(C)C)C(=O)N[C@@H](Cc1ccccc1)C(=O)N[C@@H](CCC(N)=O)C(=O)N[C@@H](CC(C)C)C(=O)N[C@@H](CCSC)C(=O)N[C@@H](CCCNC(=N)N)C(=O)N1CCC[C@H]1C(=O)N1CCC[C@H]1C(=O)N[C@@H](CC(N)=O)C(=O)N[C@@H](CCSC)C(=O)N[C@H](C(=O)N1CCC[C@H]1C(=O)N[C@@H](C)C(=O)N[C@H](C(=O)N[C@@H](CC(N)=O)C(=O)N[C@@H](C)C(N)=O)C(C)C)[C@@H](C)O	item: HA-19 tetramer	antigen-experienced tetramer+ CD4 T cells, healthy adults, HLA-DRB1*0101	dose not given	–	α4β7− CCR9− cells	64%
Cc1ccc(/C=C/C(=O)O)cc1-c1cc2c(cc1C)C(C)(C)CCC2(C)C	RNA sequencing, item: Arl11 mRNA	rat, brain	dose not given, 24 h, single dose	relative to: vehicle	log2 fold change	-0.017
COC[C@@H](NC(C)=O)C(=O)NCc1ccc(OCc2cccc(Cl)c2)cc1	formalin test, phase II	mouse	ip, 5.0 mg/kg	relative to: vehicle	licking time	72%
CCNC(=O)c1cc(Cc2ccccc2)cc2c1NCCC2NC(=O)C(N)Cc1c(C)cc(O)cc1C (stereo not shown)	warm water tail withdrawal	male C57BL/6 mice	intraperitoneal, 10 mg/kg	–	antinociception	inactive
CCN(Cc1ccccc1)C(=O)CCc1nc(CN2CCN(C(=O)Cc3ccc(OC)c(OC)c3)CC2)no1	current clamp	L4-L6 DRG neurons, rat CCI model	10 µM, added: 500 pA current injection	–	action potential amplitude	96.6 ± 1.01 mV
CC(C)C[C@@H]1NC(=O)[C@@H](Cc2c[nH]c3ccccc23)NC(=O)[C@H](CCCNC(=N)N)NC(=O)[C@@H](CCC(=O)O)NC(=O)[C@H](CCC(N)=O)NC(=O)[C@@H](CCC(=O)O)NC(=O)[C@H](CCCNC(=N)N)NC(=O)[C@@H](Cc2c[nH]c3ccccc23)NC1=O	–	mouse BALB/c	intraperitoneal, 20 mg/kg	–	duration of effect	≤ 8 h
CC[C@H](C)[C@H](NC(=O)[C@H](CCC(=O)O)NC(=O)CNC(=O)[C@@H](NC(=O)[C@H](CC(C)C)NC(=O)[C@H](CC(C)C)NC(=O)[C@H](CC(C)C)NC(=O)[C@H](CC(C)C)NC(=O)[C@H](CS)NC(=O)[C@H](CO)NC(=O)[C@H](Cc1ccccc1)NC(=O)CNC(=O)[C@H](CCCNC(=N)N)NC(=O)[C@@H]1CCCN1C(=O)[C@H](C)NC(=O)[C@H](CCSC)NC(=O)CNC(=O)CNC(=O)[C@H](Cc1ccccc1)NC(=O)[C@H](CCCCN)NC(=O)[C@H](Cc1c(C)cc(O)cc1C)NC(=O)[C@H](N)CCCNC(=N)N)[C@@H](C)O)C(=O)N[C@@H](CC(=O)O)C(=O)N[C@@H](CC(C)C)C(=O)N1CCC[C@H]1C(=O)N[C@H](C(=O)N[C@@H](CCCCN)C(=O)N[C@@H](CCCNC(=N)N)C(=O)N[C@@H](CCCNC(=N)N)C(=O)N[C@@H](C)C(N)=O)C(C)C	western blot	male transgenic AD mice, hippocampus	iv, 88.4 nmol/kg/day, 28 days	relative to: HNG plus SS-31	p-STAT3/STAT3 ratio	137%
O=C(O)/C=C/c1cc(O)cc(O)c1	ABTS scavenging	–	–	–	IC50	67 µg/mL (≈ 372 µM)
CC[C@H](C)[C@H](NC(=O)[C@H](CCCNC(=N)N)NC(=O)[C@H](CCC(N)=O)NC(=O)[C@H](CC(=O)O)NC(=O)[C@H](CC(C)C)NC(=O)[C@H](CC(C)C)NC(=O)[C@H](CC(N)=O)NC(=O)[C@H](Cc1ccccc1)NC(=O)[C@H](CC(=O)O)NC(=O)[C@@H](NC(=O)[C@@H](NC(=O)[C@H](CC(N)=O)NC(=O)CNC(=O)[C@H](CO)NC(C)=O)C(C)C)[C@@H](C)CC)C(=O)N[C@H](C(=O)N[C@@H](Cc1c[nH]c2ccccc12)C(=O)N[C@@H](CCC(N)=O)C(=O)N[C@@H](CC(N)=O)C(=O)N[C@@H](Cc1c[nH]c2ccccc12)C(=O)N[C@@H](Cc1ccc(O)cc1)C(=O)N[C@@H](C)C(N)=O)[C@@H](C)CC	item: HA-19 tetramer	antigen-experienced tetramer+ CD4 T cells, healthy adults, HLA-DRB1*0101	dose not given	–	α4β7− CCR9+ cells	0%
CS(C)(=O)=Nc1ccc(-c2ccc(-c3nc4cc(O[C@@H]5CO[C@H]6[C@@H]5OC[C@H]6O)[nH]c4cc3F)cc2)cc1	–	ob/ob mouse, AMLN diet NASH model	oral, 5 mg/kg daily, 8 weeks	relative to: vehicle	plasma transaminases	decreased

Excerpt of the above:
SMILES	test	system	setting	scale	quantity	result
CCCCCCCCCCCCCCCC(=O)N[C@@H](CCC(=O)NCCOCCOCCC(=O)NCCOCCOCCC(=O)NCCCC[C@H](NC(=O)[C@H](CC(=O)O)NC(=O)[C@H](CC(C)C)NC(=O)[C@H](Cc1ccc(O)cc1)NC(=O)[C@H](CCCCN)NC(=O)[C@H](CO)NC(=O)[C@H](Cc1ccc(O)cc1)NC(=O)[C@H](CC(=O)O)NC(=O)[C@H](CO)NC(=O)[C@@H](NC(=O)[C@H](Cc1ccccc1)NC(=O)[C@@H](NC(=O)CNC(=O)[C@H](CCC(N)=O)NC(=O)[C@@H](CO)NC(=O)[C@@H](N)Cc1c[nH]cn1)[C@@H](C)O)[C@@H](C)O)C(=O)N[C@@H](CCCNC(=N)N)C(=O)N[C@@H](CCCNC(=N)N)C(=O)N[C@@H](C)C(=O)N[C@@H](CCC(N)=O)C(=O)N[C@@H](CC(=O)O)C(=O)N[C@@H](Cc1ccccc1)C(=O)N[C@H](C(=O)N[C@@H](CCC(N)=O)C(=O)N[C@@H](Cc1c[nH]c2ccccc12)C(=O)N[C@@H](CC(C)C)C(=O)N[C@@H](CC(C)C)C(=O)N[C@@H](CC(N)=O)C(=O)N[C@H](C(=O)NCC(=O)NCC(=O)N1CCC[C@H]1C(=O)N[C@@H](CO)C(=O)N[C@@H](CO)C(=O)NCC(=O)N[C@@H](C)C(=O)N1CCC[C@H]1C(=O)N1CCC[C@H]1C(=O)N1CCC[C@H]1C(=O)N[C@@H](CO)C(N)=O)[C@@H](C)O)C(C)C)C(=O)O	flow cytometry	Schistosoma japonicum-infected mice, liver	dose not given	–	liver macrophages and Tregs	decreased
CC[C@H](C)[C@H](NC(=O)[C@H](C)NC(=O)CNC(=O)[C@@H](N)CCSC)C(=O)N[C@@H](C)C(=O)N[C@@H](CCCCN)C(=O)N[C@@H](CC(C)C)C(=O)N[C@H](C(=O)N[C@@H](C)C(=O)N[C@@H](CCCCN)C(=O)N[C@@H](Cc1ccccc1)C(=O)NCC(=O)N[C@@H](Cc1c[nH]c2ccccc12)C(=O)N1CCC[C@H]1C(=O)N[C@@H](CCCNC(=N)N)C(=O)N[C@H](C(=O)N[C@@H](CCCCN)C(=O)N[C@@H](CCCCN)C(=O)N[C@@H](Cc1ccccc1)C(=O)N[C@@H](Cc1ccc(O)cc1)C(=O)N[C@@H](CCCCN)C(=O)N[C@@H](CCC(N)=O)C(=O)N[C@H](C(=O)N[C@@H](CCSC)C(=O)N[C@@H](CCC(N)=O)C(=O)N[C@@H](Cc1ccccc1)C(=O)N[C@H](C(=O)NCC(=O)N[C@@H](CCC(N)=O)C(=O)NCC(=O)N[C@@H](Cc1c[nH]c2ccccc12)C(=O)N[C@H](C(=O)N[C@H](C(=O)N[C@@H](CC(=O)O)C(=O)N[C@@H](CCC(N)=O)C(=O)N[C@H](C(=O)N[C@@H](CCC(=O)O)C(=O)N[C@@H](CCCCN)C(=O)N[C@@H](Cc1c[nH]c2ccccc12)C(=O)N[C@@H](CC(C)C)C(=O)N[C@@H](CCCCN)C(=O)N[C@@H](CCCNC(=N)N)C(=O)N[C@@H](Cc1c[nH]cn1)C(=O)O)[C@@H](C)CC)[C@@H](C)CC)[C@@H](C)O)[C@@H](C)CC)[C@@H](C)CC)[C@@H](C)CC)C(C)C	–	PG/PE 1:1 liposomes	MIC	relative to: Triton X-100	calcein release	33.4%
